Results collected from several papers.
Lines come from different studies, so protocols differ. Values joined by “and” are separate records of one study, mostly repeats; a detail may differ.
Target: C-X-C chemokine receptor type 4 (CXCR4, Homo sapiens, UniProt P61073)

With `CC(=O)[O][Cu+].c1ccc(CN2CCN3CCN(CC2)CCN(Cc2ccccc2)CC3)cc1` the IC50 was 232 nM (calcium signal, antagonist, fluorescence).
`c1ccc(C2=Nn3c(nnc3-c3ccccc3)SC2)cc1` has an EC50 of greater than 80000 nM (β-arrestin recruitment, agonist).
`CC(=O)[O][Cu+].CN1CCCN2CCN(CCCN(Cc3ccccc3)CC2)CC1` has an IC50 of ~10 nM and 12.4 nM (ligand displacement, flow cytometry).
`CCc1noc(CN(CCN(Cc2nc(CC)no2)c2ccccc2)c2ccccc2)n1` has an IC50 of roughly 2000 nM (β-arrestin recruitment).
With `CC(=O)[O][Cu+].CN1CCN2CCN(CC1)CCN(Cc1ccccc1)CC2` the IC50 was 204 nM (calcium signal, antagonist, fluorescence).
`CCOc1ccccc1-c1nnc2n1N=C(c1ccc(NC(C)=O)cc1)CS2` has an EC50 of greater than 10000 nM (β-arrestin recruitment, agonist).
The IC50 of `COc1ccccc1N1CCN(c2nc(Nc3ccc(C)cc3C)c3nccnc3n2)CC1` is reported as roughly 30000 nM (β-arrestin recruitment).
The IC50 of `N=C(N)NCCC[C@H](NC(=O)[C@@H]1CSSC[C@H](NC(=O)[C@H](Cc2ccc3ccccc3c2)NC(=O)[C@H](CCCNC(=N)N)NC(=O)[C@H](CCCNC(=N)N)NC(=S)Nc2ccc(C[C@H]3CN(CC(=O)O)CCN(CC(=O)O)CCN3CC(=O)O)cc2)C(=O)N[C@@H](Cc2ccc(O)cc2)C(=O)N[C@@H](CCCNC(N)=O)C(=O)N[C@@H](CCCCN)C(=O)N[C@H](CCCCN)C(=O)N2CCC[C@H]2C(=O)N[C@@H](Cc2ccc(O)cc2)C(=O)N[C@@H](CCCNC(=N)N)C(=O)N[C@@H](CCCNC(N)=O)C(=O)N1)C(N)=O` is reported as 138 nM (ligand displacement in cells, radioligand).
`N=C(N)NCCC[C@@H]1NC(=O)[C@@H]2CSSC[C@H](NC(=O)[C@H](Cc3ccc4ccccc4c3)NC(=O)[C@H](CCCNC(=N)N)NC(=O)[C@H](CCCNC(=N)N)NC(=O)[C@H]3CCCN3C(=O)CNC1=O)C(=O)N[C@@H](Cc1ccc(O)cc1)C(=O)N[C@@H](CCC(N)=O)C(=O)N[C@@H](CCCCN)C(=O)N1CCC[C@@H]1C(=O)N1CCC[C@H]1C(=O)N[C@@H](Cc1ccc(O)cc1)C(=O)N[C@@H](CCCNC(=N)N)C(=O)N[C@@H](CCCNC(N)=O)C(=O)N2` gave an IC50 of 0.087 nM.
For `COc1ccccc1N1CCN(c2nc(Nc3ccc(C)c(C)c3)c3nccnc3n2)CC1`, the IC50 was roughly 5000 nM (β-arrestin recruitment).
For `CCOc1ccccc1-c1nnc2n1N=C(c1ccc(O)cc1)CS2`, the EC50 was 1280 nM (β-arrestin recruitment, agonist).

A few entries again:
The IC50 of `N=C(N)NCCC[C@H](NC(=O)[C@@H]1CSSC[C@H](NC(=O)[C@H](Cc2ccc3ccccc3c2)NC(=O)[C@H](CCCNC(=N)N)NC(=O)[C@H](CCCNC(=N)N)NC(=S)Nc2ccc(C[C@H]3CN(CC(=O)O)CCN(CC(=O)O)CCN3CC(=O)O)cc2)C(=O)N[C@@H](Cc2ccc(O)cc2)C(=O)N[C@@H](CCCNC(N)=O)C(=O)N[C@@H](CCCCN)C(=O)N[C@H](CCCCN)C(=O)N2CCC[C@H]2C(=O)N[C@@H](Cc2ccc(O)cc2)C(=O)N[C@@H](CCCNC(=N)N)C(=O)N[C@@H](CCCNC(N)=O)C(=O)N1)C(N)=O` is reported as 138 nM (ligand displacement in cells, radioligand).
